Results pooled from the literature.
Numbered parts are unrelated; each lists some results of a single study.

Sample 1
Target: Prothrombin, mature alpha-thrombin (F2, Homo sapiens, UniProt P00734)
Method: aptamer microarray, sandwich
Form: DNA with 2'F-ANA
Matrix: in vitro
Concentration: 200 nM
Setting: whole 15-mer aptamer, many near background
Added: Cy3 exosite-II aptamer, 400 nM
Reading: higher = stronger binding
Oligonucleotide: GGTTGGTGTGGTTGG
For `2'F-ANA at 4 5 6 7 8 10 11 12 14 15`, “mean fluorescence intensity” read 50.1 a.u.
`2'F-ANA at 1 3 4 8 11 13 15`: “mean fluorescence intensity” 152 a.u.
Under “mean fluorescence intensity”, `2'F-ANA at 3 5 6 8 9 11 14` is recorded as 79.1 a.u.
`2'F-ANA at 1 3 4 6 7 8 9 10 11 12`: “mean fluorescence intensity” 103 a.u.
`2'F-ANA at 6 7 8 10 11`: “mean fluorescence intensity” 151 a.u.
For `2'F-ANA at 2 3 4 7 8 11 13 14 15`, “mean fluorescence intensity” read 247 a.u.

Sample 2
Target: Hepatocyte nuclear factor 3-alpha (Foxa1, Mus musculus, UniProt P35582, residues 1-468, full length assumed)
Method: EMSA with sequencing
Form: double-stranded DNA, one strand shown
Matrix: in vitro
Concentration: 10 and 20 nM
Setting: whole designed probe, mean of two concentrations, ends assumed
Relative to: negative control set to 0
Reading: higher = stronger binding
Target sequence (chain): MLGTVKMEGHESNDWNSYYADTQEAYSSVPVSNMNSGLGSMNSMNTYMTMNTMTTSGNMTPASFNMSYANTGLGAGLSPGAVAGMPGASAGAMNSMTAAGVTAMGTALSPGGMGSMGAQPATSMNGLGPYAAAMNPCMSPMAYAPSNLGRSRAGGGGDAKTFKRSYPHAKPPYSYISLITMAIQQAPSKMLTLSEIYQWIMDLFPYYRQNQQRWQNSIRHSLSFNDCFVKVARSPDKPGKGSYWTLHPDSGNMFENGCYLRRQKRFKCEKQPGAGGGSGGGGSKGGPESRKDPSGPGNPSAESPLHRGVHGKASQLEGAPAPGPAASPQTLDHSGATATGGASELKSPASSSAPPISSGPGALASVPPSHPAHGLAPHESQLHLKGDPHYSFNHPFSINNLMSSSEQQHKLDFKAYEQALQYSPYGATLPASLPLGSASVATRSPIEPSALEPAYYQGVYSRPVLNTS
Under “normalised bound fraction”, `GTGAGCGGTGCCCATTGATGGGGAACCTAACGTGCAAAATGCTGTACATTAAGTATAGCCAAAATGCAACACTGAGACAGACAGAAAAAACAGGAATTTTTCCAGGGAGATAAATCAAAAGTAATCTAGGAGATAGCTTTAGAGCTGTGCTTTCAATGGCTGGATATTCAAATTATGTTTTATCTCTTAAAATTTCAGAAGTAATATGGGGATACTGAATTTCACTGGGATCGTGGGGAC` is recorded as -0.0722 ratio.
`GTGAGCGGTGCCCATTGATGGGGAACGTGTTCAGGTGGCCAGATGCCAGGCGCCTCCCTGTTATTTGTATTAGTCCTTCACCTAGAAACAACAGATGCTGTGGTGACTCAGGGAGACATGTTTACAGTAGGAGAGACTAAGAGATAGCTTCCTGGAGGCTAAAGTGATGGCACACACAGGAACTGAGACTTCCATAACTTTTCTGGAACTGGAGTAGAATTTCACTGGGATCGTGGGGAC` — result for “normalised bound fraction”: 0.271 ratio.
`GTGAGCGGTGCCCATTGATGGGGAACCACACACACACACACACCCCACACACGCACTACGAGAAGGGGAGTTTGATCTTGTCTCATTGGCGTCTCGGGTCTGAAAGGAAAATCGTTTGGGTAATCTGCCAAGCTTCCAGGCTTAACGCCCGGCTCCCGCCCCCGCCCCTCCATCCCCTCCTGCCTCCCCCACTCGCCTTCAACCCCACCCGCCACCCACTTTCACTGGGATCGTGGGGAC`: “normalised bound fraction” -0.0207 ratio.

Sample 3
Target: Interferon regulatory factor 5, full length, phosphomimetic (IRF5, Homo sapiens, UniProt Q13568-2, residues 1-514, S451D/S453D/S456D/S462D)
Method: protein-binding microarray
Form: double-stranded DNA, one strand shown
Matrix: in vitro
Concentration: 940 nM top
Setting: 60-bp whole probe
Added: salmon DNA 0.4 mg/ml
Relative to: random background probes
Reading: higher = stronger binding
All sequences stand within: GCCTAGCAC … GTCTTGATTCGCTTGACGCTGCTG
`GACGGTTTCGACACTGGGGCCGTGCTA` — result for “fitted relative affinity”: 7.24 z-score.
For `TTAGGACTGGACACTGGGCTAGTGCTA`, “fitted relative affinity” read -0.456 z-score.
`TTAGAACTGAGTCTCGACTAGTGCTAG` — result for “fitted relative affinity”: 0.905 z-score.
Under “fitted relative affinity”, `CACGATATCAGTCTCGAGACGTGCTAG` is recorded as 1.44 z-score.
For `GACGATATCAGCCTGGAGACGTGCTAG`, “fitted relative affinity” read -0.28 z-score.

Further values, each from its own experiment
For `PhoQ, residues 284 288 289 292 302 303 ASSHFY`, the fold induction was 1.93 (PhoP, residues 12 14 15 18 19 NHFRA (Escherichia coli, UniProt P23836); Sort-seq, item: YFP reporter; E. coli; PhoQ-PhoP variant library, added: 10 µM Mg2+; relative to: high Mg2+ state, higher = stronger signaling).

A few entries again (sample 3):
For `GACGATATCAGCCTGGAGACGTGCTAG`, “fitted relative affinity” read -0.28 z-score.
`GACGGTTTCGACACTGGGGCCGTGCTA` — result for “fitted relative affinity”: 7.24 z-score.
